Results from different studies.
Protocols differ between the studies behind these lines.
Target: D(1A) dopamine receptor (DRD1, Homo sapiens, UniProt P21728)
UniProt P21728, sequence (whole entry, looked up): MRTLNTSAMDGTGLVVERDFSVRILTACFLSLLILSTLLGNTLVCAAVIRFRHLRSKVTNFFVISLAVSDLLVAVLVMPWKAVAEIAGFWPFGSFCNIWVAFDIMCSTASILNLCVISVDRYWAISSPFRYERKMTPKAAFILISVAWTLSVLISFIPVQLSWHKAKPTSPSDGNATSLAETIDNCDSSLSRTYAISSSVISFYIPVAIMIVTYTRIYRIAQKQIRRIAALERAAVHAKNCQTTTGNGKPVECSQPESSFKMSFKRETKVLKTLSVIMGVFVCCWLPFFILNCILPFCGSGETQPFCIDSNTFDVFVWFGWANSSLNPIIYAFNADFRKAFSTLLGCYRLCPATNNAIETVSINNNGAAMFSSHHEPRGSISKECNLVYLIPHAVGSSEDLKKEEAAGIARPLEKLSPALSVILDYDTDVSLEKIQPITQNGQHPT

Structure (SMILES) | test | system | setting | inhibition
COc1ccc(C(=O)Nc2c(-c3cccs3)nc3ccccn23)cc1 | ligand displacement, radioligand |  | 10 µM | < 50%
COc1ncc2nc(C)n(Cc3ncc(S(N)(=O)=O)cc3F)c2c1-c1ccccc1 | antagonist, cell-based |  | 10 µM | -8.95%
COCC(=O)N1CCc2cc(-c3csc(NC(=O)c4cc(OC)cc(OC)c4)n3)ccc21 | cell-free assay |  | 10 µM | 6%
O=C1c2sc(-c3ccc(N4CCC(F)C4)nc3F)nc2CCN1c1cccnc1 (stereo not drawn) | ligand displacement, radioligand |  | 1 µM | -2%
COc1ccc(S(=O)(=O)N2CCc3ccccc3C2)cc1N1CCN(C(=O)c2ccc(F)cc2C(F)(F)F)CC1 | ligand displacement, radioligand |  | 1 µM | -11.4%
CCC(=O)N(C)c1ccc(Cl)c(Cl)c1 | ligand displacement, radioligand |  | 10 µM | < 10%
CO[C@@H](C)c1c(NC(=O)Nc2cnc(-n3nccn3)c(C(F)(F)F)c2)cnc2sc(C)nc12 | ligand displacement, radioligand |  | 10 µM | 6.1%
Brc1ccccc1-c1nnc(CSc2nnnn2-c2ccccc2)o1 | ligand displacement, radioligand |  | 10 µM | -1%
CNC(=O)C[C@H](Cc1ccc(C#N)cc1)NC(=O)c1cc(-c2ccc(CN[C@H](C)c3ccc(C)cc3)o2)ccc1Cl | agonist response, antagonist | human cells | 10 µM, D1 antagonist | 1%
Cc1ccnc(OC[C@H]2CN(CCN3CCc4ccccc43)CCO2)c1 | radioligand binding |  | concentration not given, together with: [3H]SCH23390 | 56.4%
Cn1ccc2cc(-n3c(=O)[nH]c4sc5c(c4c3=O)CCCC5)ccc21 | cell-free assay, radioligand |  | 10 µM | 14%
c1ccc(OC[C@H]2CN(CCN3CCc4ccccc43)CCO2)nc1 | radioligand binding |  | concentration not given, together with: [3H]SCH23390 | 29.9%
COc1ccc(C#CC2=C[C@H]3C[C@@]4(OC(=O)C=C24)[C@H]2CC[C@H](C(OC)OC)N32)cc1 | ligand displacement, radioligand |  | 10 µM | 14%
O=C(CN1CCO[C@@H](COc2cccc(Cl)c2)C1)N1CCc2ccccc21 | radioligand binding |  | concentration not given, together with: [3H]SCH23390 | 23%
Cc1[nH]nc2c1N=C(c1ccccc1Cl)c1cnc(N3CCOCC3)cc1N2 | cell-free assay |  | 10 µM | 0%
